Experimental data pooled from the literature.
Each line is one published result; not all experiments were run side by side. Numbers after ± are the reported error.
ALB: Albumin (ALB, Bos taurus, UniProt P02769)
Sequence of UniProt P02769 (whole entry, looked up): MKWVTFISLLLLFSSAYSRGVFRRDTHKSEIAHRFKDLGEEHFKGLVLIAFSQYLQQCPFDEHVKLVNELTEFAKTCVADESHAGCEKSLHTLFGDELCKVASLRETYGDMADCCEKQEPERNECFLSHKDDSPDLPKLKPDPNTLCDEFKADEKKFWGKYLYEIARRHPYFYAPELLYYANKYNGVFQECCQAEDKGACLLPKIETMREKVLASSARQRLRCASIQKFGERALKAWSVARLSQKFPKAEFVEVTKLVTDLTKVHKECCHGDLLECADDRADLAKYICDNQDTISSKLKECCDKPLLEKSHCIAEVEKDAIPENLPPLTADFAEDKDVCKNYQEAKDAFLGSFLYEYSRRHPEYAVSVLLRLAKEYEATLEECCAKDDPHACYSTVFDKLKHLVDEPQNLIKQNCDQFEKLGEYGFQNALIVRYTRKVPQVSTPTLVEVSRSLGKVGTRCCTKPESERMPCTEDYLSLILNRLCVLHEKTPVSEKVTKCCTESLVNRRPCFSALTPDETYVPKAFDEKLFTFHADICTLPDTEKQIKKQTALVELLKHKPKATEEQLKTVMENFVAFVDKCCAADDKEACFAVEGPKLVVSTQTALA
Sequence of UniProt P41765 (whole entry, looked up): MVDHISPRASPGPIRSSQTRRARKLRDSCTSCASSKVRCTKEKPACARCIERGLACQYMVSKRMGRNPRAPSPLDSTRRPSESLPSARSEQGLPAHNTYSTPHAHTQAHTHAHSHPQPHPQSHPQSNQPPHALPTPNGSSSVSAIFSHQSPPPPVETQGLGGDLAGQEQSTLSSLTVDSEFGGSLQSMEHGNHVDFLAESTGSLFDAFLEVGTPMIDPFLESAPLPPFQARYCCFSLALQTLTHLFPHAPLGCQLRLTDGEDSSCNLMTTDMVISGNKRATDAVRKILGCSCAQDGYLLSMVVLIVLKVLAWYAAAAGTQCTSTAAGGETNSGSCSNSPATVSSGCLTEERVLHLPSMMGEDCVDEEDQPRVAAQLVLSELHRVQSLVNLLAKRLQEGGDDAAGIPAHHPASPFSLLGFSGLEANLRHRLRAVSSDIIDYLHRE
Sequence of UniProt P11387 (whole entry, looked up): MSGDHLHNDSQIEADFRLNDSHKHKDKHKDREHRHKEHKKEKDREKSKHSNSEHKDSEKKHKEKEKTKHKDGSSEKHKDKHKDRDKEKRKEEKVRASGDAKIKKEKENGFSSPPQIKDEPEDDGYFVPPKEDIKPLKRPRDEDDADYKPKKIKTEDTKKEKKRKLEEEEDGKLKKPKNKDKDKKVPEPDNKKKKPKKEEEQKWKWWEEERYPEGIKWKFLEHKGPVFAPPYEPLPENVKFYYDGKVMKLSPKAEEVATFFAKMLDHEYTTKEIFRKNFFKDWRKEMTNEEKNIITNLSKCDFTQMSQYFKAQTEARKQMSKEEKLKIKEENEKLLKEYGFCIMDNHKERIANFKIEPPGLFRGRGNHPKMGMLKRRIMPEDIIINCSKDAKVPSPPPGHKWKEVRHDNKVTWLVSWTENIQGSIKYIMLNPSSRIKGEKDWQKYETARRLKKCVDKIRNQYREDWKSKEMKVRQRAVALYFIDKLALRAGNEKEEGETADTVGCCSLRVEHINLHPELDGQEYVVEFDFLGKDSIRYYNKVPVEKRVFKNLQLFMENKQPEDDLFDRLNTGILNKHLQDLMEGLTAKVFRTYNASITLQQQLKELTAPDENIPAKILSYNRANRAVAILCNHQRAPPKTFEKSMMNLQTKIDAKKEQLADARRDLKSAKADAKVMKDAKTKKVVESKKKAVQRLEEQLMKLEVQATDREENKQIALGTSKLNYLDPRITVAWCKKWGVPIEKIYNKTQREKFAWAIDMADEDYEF

Substance	tested on	assay	system	conditions	endpoint	result
C=C1C[C@](OC)([C@H](O)C(=O)NC[C@@H]2C[C@@H](OC)C(C)(C)[C@@H](C[C@@H](COC)OC)O2)O[C@H](C)[C@@H]1C	B16	cell viability, sulforhodamine B	–	72 h, 37 °C, with: 100 µM H2O2	IC50	1.2 ± 0.1 nM
C1=[N+]2CCC[N+]3=Cc4ccc5[n]4[Au-]23[n]2c1ccc2-c1nc2ccccc2nc1-5.F[P-](F)(F)(F)(F)F	DNA topoisomerase 1 (TOP1, Homo sapiens, UniProt P11387)	PicoGreen fluorescence	–	0.1 and 1 µM	TOP1 inhibition	positive
O=C(O)c1ccccc1OCc1ccccc1Br	Ras-related C3 botulinum toxin substrate 1 (RAC1, Homo sapiens, UniProt P63000)	GTP binding, flow cytometry bead	–	EDTA buffer, with: 100 nM BODIPY-GTP	EC50	151 nM
CN1CCN(c2ccc3[nH]c(-c4ccc5[nH]c(-c6ccc(OCCCCNC(=O)c7ccc8c(c7)C7(OC8=O)c8ccc(N(C)C)cc8C(C)(C)c8cc(N(C)C)ccc87)cc6)nc5c4)nc3c2)CC1	ALB	–	PBS	1 µM, 1 h, with: 25 mg/mL albumin	fluorescence quantum yield	0.181 ± 0.007
TCAGATATTTCGGTCTCGCAGGAAAGAT (dsDNA)	aflR 15-79 (Aspergillus flavus, UniProt P41765)	EMSA	double-stranded DNA, one strand shown	–	binding	no binding
C[C@H](Nc1ncnc(N)c1C#N)c1c(-c2ccccc2)[nH]c2c(Cl)cccc2c1=O	–	–	CB17 SCID mice, xenograft, plasma	oral, 200 mg/kg once daily, day 1	Cmax	35.8 ± 5.76 µM
CN1CCN(c2ccc3[nH]c(-c4ccc5[nH]c(-c6ccc(OCCCCNC(=O)c7cccc8c7C(=O)OC87c8ccc(N(C)C)cc8[Si](C)(C)c8cc(N(C)C)ccc87)cc6)nc5c4)nc3c2)CC1	ALB	–	PBS	1 µM, 1 h, with: 25 mg/mL albumin	fluorescence quantum yield	0.027 ± 0.003
F[P-](F)(F)(F)(F)F.OC(Cn1cncn1)(Cn1cc(-[c-]2cccc2)nn1)c1ccc(F)cc1F.[Co+3].c1cc[cH-]c1 (racemic)	Candida albicans	EUCAST	SC5314	48 h	MIC50	100 µM

For quick reference, copied from above:
Substance	tested on	assay	system	conditions	endpoint	result
CN1CCN(c2ccc3[nH]c(-c4ccc5[nH]c(-c6ccc(OCCCCNC(=O)c7cccc8c7C(=O)OC87c8ccc(N(C)C)cc8[Si](C)(C)c8cc(N(C)C)ccc87)cc6)nc5c4)nc3c2)CC1	ALB	–	PBS	1 µM, 1 h, with: 25 mg/mL albumin	fluorescence quantum yield	0.027 ± 0.003
